Assay results from different studies.
Each line is one published result; not all experiments were run side by side. Several values in a cell are separate wells, animals, samples, runs or records. ± gives the spread as reported.
CNR1: Cannabinoid receptor 1 (CNR1, Homo sapiens, UniProt P21554)
UniProt P21554, sequence (whole entry, unmodified, looked up): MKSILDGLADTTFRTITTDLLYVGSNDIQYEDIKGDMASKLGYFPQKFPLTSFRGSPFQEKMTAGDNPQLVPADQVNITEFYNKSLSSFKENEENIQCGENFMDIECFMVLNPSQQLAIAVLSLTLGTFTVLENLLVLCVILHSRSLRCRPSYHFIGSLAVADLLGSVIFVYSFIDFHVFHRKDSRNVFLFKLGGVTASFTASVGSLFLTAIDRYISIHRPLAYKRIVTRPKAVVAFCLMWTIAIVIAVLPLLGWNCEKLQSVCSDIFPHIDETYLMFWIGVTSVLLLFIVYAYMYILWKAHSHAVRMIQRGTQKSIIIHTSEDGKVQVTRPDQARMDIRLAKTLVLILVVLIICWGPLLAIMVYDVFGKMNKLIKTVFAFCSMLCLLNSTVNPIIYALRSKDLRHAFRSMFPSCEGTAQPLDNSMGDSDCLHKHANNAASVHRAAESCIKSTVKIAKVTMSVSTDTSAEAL
UniProt P25123, sequence (whole entry, looked up): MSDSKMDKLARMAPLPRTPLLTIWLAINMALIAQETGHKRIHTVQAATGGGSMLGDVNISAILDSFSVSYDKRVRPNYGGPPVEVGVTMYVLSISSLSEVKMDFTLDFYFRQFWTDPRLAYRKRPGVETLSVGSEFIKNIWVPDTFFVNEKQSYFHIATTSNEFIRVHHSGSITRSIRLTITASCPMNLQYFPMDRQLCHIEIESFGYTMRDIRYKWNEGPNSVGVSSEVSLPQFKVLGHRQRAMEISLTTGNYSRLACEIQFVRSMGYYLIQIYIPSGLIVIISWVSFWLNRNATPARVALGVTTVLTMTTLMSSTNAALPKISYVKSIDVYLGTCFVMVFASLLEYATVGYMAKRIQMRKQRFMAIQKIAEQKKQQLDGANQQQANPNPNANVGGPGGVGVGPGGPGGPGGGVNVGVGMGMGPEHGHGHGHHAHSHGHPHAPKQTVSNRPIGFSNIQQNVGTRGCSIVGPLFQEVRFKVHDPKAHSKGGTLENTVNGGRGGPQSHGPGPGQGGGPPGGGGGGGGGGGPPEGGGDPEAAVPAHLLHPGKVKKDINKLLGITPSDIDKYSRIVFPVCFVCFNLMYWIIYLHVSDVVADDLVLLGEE
UniProt P9WGJ9, sequence (whole entry, looked up): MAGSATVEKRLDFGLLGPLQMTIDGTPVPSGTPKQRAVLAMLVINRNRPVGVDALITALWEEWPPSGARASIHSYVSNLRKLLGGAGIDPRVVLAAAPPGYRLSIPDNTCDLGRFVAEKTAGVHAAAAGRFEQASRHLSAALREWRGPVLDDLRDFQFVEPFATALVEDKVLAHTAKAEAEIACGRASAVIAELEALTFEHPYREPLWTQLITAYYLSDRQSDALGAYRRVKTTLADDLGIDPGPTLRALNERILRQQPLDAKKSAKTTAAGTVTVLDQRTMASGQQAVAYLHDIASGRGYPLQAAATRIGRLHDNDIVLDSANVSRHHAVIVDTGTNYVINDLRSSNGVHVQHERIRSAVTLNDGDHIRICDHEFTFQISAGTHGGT
UniProt P32246, sequence (whole entry, looked up): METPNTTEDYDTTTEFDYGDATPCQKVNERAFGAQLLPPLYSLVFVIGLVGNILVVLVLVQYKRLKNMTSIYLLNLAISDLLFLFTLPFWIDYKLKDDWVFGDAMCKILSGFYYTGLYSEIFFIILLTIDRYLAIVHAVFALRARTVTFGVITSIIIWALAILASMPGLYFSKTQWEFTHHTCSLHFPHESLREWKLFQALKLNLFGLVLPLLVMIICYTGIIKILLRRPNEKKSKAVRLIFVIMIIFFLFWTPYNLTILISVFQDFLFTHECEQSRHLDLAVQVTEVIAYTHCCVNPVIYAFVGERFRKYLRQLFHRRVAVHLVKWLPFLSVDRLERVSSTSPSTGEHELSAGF
UniProt O00311, sequence (whole entry, looked up): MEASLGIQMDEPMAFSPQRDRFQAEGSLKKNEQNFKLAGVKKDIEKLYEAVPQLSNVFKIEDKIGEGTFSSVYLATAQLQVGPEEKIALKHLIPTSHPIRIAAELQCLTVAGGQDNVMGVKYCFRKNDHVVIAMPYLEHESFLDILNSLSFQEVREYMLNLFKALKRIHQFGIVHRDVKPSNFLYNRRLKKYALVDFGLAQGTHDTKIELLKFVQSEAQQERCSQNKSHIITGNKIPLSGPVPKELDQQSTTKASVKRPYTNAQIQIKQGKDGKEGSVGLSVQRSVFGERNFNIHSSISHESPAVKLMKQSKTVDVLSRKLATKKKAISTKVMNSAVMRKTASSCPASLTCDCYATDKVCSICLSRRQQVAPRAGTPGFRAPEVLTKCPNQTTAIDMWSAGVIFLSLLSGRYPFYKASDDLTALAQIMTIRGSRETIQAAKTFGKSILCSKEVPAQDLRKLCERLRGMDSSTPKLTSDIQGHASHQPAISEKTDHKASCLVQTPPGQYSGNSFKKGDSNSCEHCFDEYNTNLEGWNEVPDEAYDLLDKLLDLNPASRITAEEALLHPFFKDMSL
UniProt Q9BUB5, sequence (whole entry, looked up): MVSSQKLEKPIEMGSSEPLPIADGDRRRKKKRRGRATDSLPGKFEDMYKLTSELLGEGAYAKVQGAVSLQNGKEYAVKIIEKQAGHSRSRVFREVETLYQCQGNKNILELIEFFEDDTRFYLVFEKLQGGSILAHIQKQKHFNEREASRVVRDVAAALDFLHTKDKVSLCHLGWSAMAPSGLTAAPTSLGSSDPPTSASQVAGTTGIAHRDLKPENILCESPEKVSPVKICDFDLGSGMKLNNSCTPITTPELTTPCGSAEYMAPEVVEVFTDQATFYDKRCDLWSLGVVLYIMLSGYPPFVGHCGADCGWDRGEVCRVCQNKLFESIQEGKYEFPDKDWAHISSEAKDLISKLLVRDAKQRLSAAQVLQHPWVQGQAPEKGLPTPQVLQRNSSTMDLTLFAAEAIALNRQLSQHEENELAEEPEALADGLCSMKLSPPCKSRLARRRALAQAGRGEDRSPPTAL
UniProt O15146, sequence (whole entry, looked up): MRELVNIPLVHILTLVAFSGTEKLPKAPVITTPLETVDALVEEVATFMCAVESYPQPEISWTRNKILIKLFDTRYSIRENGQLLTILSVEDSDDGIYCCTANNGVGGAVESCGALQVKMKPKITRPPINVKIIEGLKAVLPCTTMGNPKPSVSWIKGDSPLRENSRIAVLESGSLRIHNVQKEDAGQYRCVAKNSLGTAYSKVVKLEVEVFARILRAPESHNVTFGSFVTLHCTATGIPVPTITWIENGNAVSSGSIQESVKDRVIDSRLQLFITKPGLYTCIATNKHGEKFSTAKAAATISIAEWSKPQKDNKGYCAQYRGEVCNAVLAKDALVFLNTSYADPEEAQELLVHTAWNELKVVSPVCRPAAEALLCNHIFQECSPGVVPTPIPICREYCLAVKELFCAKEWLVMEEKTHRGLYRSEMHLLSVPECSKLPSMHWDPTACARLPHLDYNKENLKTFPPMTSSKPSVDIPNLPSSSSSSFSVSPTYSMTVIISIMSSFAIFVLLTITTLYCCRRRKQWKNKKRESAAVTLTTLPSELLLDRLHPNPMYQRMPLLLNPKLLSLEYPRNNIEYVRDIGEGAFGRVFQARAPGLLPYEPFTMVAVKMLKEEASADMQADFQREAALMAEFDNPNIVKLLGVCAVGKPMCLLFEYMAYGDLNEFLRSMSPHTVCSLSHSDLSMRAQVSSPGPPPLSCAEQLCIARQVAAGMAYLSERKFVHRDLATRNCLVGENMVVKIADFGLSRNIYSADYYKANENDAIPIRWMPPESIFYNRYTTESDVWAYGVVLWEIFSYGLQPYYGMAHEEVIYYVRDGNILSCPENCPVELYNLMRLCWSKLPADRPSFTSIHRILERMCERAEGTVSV
UniProt Q16832, sequence (whole entry, looked up): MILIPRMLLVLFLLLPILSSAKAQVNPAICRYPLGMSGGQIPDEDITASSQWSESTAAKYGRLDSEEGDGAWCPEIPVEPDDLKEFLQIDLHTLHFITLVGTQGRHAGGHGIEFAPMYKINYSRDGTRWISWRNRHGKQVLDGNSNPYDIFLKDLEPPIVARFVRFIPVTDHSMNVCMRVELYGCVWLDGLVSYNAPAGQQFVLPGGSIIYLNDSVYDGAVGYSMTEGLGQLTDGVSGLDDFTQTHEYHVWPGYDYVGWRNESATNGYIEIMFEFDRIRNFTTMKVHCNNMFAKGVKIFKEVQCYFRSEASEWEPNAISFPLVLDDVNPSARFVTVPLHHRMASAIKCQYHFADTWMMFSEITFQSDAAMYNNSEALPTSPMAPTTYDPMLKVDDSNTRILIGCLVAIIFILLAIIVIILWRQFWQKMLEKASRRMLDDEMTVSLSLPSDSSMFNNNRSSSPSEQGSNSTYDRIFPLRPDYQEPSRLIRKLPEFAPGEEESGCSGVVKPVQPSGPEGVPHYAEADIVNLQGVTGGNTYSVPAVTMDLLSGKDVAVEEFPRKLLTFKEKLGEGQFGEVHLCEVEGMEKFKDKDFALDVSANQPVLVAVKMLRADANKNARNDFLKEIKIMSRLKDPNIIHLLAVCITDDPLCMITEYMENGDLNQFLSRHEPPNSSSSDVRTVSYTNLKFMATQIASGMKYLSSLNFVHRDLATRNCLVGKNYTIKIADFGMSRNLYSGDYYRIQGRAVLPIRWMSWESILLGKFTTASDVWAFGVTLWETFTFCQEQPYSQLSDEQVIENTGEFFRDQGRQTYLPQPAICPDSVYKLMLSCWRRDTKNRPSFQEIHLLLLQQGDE

Structure (SMILES) = CCn1ncc2ccc(NS(=O)(=O)c3cc([N+](=O)[O-])cc(Cl)c3F)cc21; target or system = 3-oxoacyl-[acyl-carrier-protein] synthase 1 (kasA, Mycobacterium tuberculosis, UniProt P9WQD9); test = thermal stabilization, nanoDSF; setting = 100 µM; quantity = ΔTm; result = -0.87 °C
Structure (SMILES) = O=C1NC2(CC2)COc2ncc(F)cc2[C@H]2COCCN2c2ccn3ncc1c3n2; system = Sprague-Dawley rat, male, spleen; setting = oral, 2.5 mg/kg/day, 4 weeks, end of treatment; quantity = organ-to-body weight ratio; result = 0.27 ± 0.064%
Structure (SMILES) = Cc1ccc(OCCN(C)C)cc1C(=O)N[C@H](C)c1cc(-c2ccc(CNC3CCCC3)s2)nc2ccccc12; target or system = Vero E6; setting = 31.25 µM; quantity = viability; result = 0.685% and 0.228%
Structure (SMILES) = CNC(=O)N1CCN(c2ccc(NC(=O)Cn3c(C)c(C(=O)c4ccc(OC)cc4)c4ccccc43)cc2C(F)(F)F)CC1; target or system = Discoidin domain-containing receptor 2 (DDR2, Homo sapiens, UniProt Q16832); test = competition binding; how to read = baseline: DDR2 over DDR1; quantity = selectivity ratio; result = > 65
Structure (SMILES) = CCCCCn1cc(C(=O)c2cccc3ccccc23)c2ccccc21; target or system = CNR1; test = GαoA activation, agonist, BRET; how to read = baseline: reference agonist; quantity = Emax; result = 77.3 ± 6.8%
Structure (SMILES) = O=C1NC(=O)c2c1c1cc(F)c[n+]3c1c1c2c2cc(O)ccc2[n]1[Ru-4]312([N]=C=S)[S+]3CC[S+]1CC[S+]2CC3 (stereo not shown); target or system = Muscle, skeletal receptor tyrosine-protein kinase (MUSK, Homo sapiens, UniProt O15146); test = enzyme activity; setting = 100 nM, human enzyme, together with: 10 µM ATP; how to read = baseline: untreated; quantity = remaining activity; result = 113%
Structure (SMILES) = O=[N+]([O-])CC(c1ccco1)c1c(-c2ccccc2)[nH]c2ccccc12 (stereo not shown); target or system = Cannabinoid receptor 1 (CNR1, Homo sapiens, UniProt P21554, I245A); test = Gαi1-γ2 dissociation, BRET; quantity = Emax; result = 49.6 ± 6.52%
Structure (SMILES) = CCOCC1C(c2ccc(Cl)c(Cl)c2)CC2CCC1N2C (stereo not shown); target or system = Sodium-dependent dopamine transporter (SLC6A3, Homo sapiens, UniProt Q01959); test = dopamine uptake; setting = 0.002 µM, 0.03333 h, together with: [3H]dopamine; how to read = baseline: no inhibitor; quantity = remaining activity; result = 3.7%
Structure (SMILES) = CC(C)C[C@H](NC(=O)[C@H](C)NC(=O)[C@H](CCC(=O)O)NC(=O)[C@@H](N)Cc1c[nH]cn1)C(=O)N[C@@H](COP(=O)(O)O)C(=O)N[C@@H](CC(=O)O)C(=O)N1CCC[C@H]1C(=O)N[C@@H](CC(=O)O)C(=O)O; target or system = Transcriptional regulatory protein EmbR (embR, Mycobacterium tuberculosis, UniProt P9WGJ9); test = binding; quantity = kon; result = 1080 ± 180 M⁻¹ s⁻¹
Structure (SMILES) = CC(C)[C@H]1NC(=O)C[C@H]2/C=C/CCSSC[C@@H](NC1=O)C(=O)N[C@H](Cc1cccc3ccccc13)C(=O)NCC(=O)O2; target or system = Cell division cycle 7-related protein kinase, with DBF4 (CDC7, Homo sapiens, UniProt O00311); setting = 10 µM; quantity = inhibition; result = -0.6%
Structure (SMILES) = Nc1ccc(/C=C/C(=O)N2CCc3c(oc4c(-c5ccc(F)cc5)cc(-c5ccc(C(=O)N6CCC(F)(F)CC6)cn5)cc34)C2)cn1; target or system = MAP kinase-interacting serine/threonine-protein kinase 1 (MKNK1, Homo sapiens, UniProt Q9BUB5); test = binding, competition with immobilised ligand; setting = 1 µM; quantity = remaining binding; result = 100%
Structure (SMILES) = C=C(C)C1C2OC(=O)C1C1(O)CC3OC34C(=O)OC2C14C (stereo not shown); target or system = Rdl (Drosophila melanogaster, UniProt P25123); test = ion current, inhibitor, two-electrode voltage clamp; setting = from τoff, together with: GABA at EC50; quantity = koff; result = 0.11 s⁻¹
Structure (SMILES) = CC(C)CC(C(=O)N1CC2(CC1C#N)C(=O)Nc1ccccc12)N(C)C(=O)c1cc2c(F)cc(F)c(F)c2[nH]1 (stereo not shown); target or system = Replicase polyprotein 1ab, main protease (Human coronavirus OC43, UniProt P0C6X6); test = enzyme activity; setting = 0.01001 µM; quantity = remaining activity; result = 22.9%
Structure (SMILES) = Cc1ccc2c(C(C[N+](=O)[O-])c3cccs3)c(-c3ccccc3)[nH]c2c1 (stereo not shown); target or system = Cannabinoid receptor 1 (CNR1, Homo sapiens, UniProt P21554, V249A); test = β-arrestin recruitment, agonist, luciferase; quantity = Emax; result = 224%
Structure (SMILES) = CCCCCn1cc(C(=O)c2cccc3c2CC(C)(C)C3)c2ccccc21; target or system = CNR1; test = agonist, BRET; how to read = baseline: Gαi1 over β-arrestin 2, reference agonist; quantity = bias factor (ΔΔlog(Emax/EC50)); result = 0.57
Structure (SMILES) = COc1ccccc1C(C[N+](=O)[O-])c1c(-c2ccccc2)[nH]c2ccccc12 (stereo not shown); target or system = Cannabinoid receptor 1, with Gi1 (CNR1, Homo sapiens, UniProt P21554); test = Gi1 dissociation, agonist, BRET; quantity = Emax; result = 74.6 ± 4.61%
Structure (SMILES) = Cc1ccc(NC2(C)CN(C)C2)cc1C(=O)N[C@H](C)c1cc(-c2cnn(C)c2)nc2ccccc12; target or system = Vero E6; setting = 125 µM; quantity = viability; result = 110% and 107% and 93.3%
Structure (SMILES) = CCCCCn1cc(C(=O)c2ccc3c(c2)CC(C)(C)C3)c2ccccc21; target or system = Cannabinoid receptor 1 (CNR1, Homo sapiens, UniProt P21554, F177A); test = Gαi1 engagement, agonist, BRET; how to read = baseline: reference agonist at wild-type CB1; quantity = Emax; result = 11.3 ± 11.7%
Structure (SMILES) = Cc1sc2c(c1C)C(c1ccc(Cl)cc1)=NC(CC(=O)OC(C)(C)C)c1nnc(C)n1-2 (stereo not shown); target or system = C-C chemokine receptor type 1 (CCR1, Homo sapiens, UniProt P32246); test = ligand displacement, radioligand; setting = 1 µM; quantity = inhibition; result = -4%

Some of these lines once more:
Structure (SMILES) = CC(C)CC(C(=O)N1CC2(CC1C#N)C(=O)Nc1ccccc12)N(C)C(=O)c1cc2c(F)cc(F)c(F)c2[nH]1 (stereo not shown); target or system = Replicase polyprotein 1ab, main protease (Human coronavirus OC43, UniProt P0C6X6); test = enzyme activity; setting = 0.01001 µM; quantity = remaining activity; result = 22.9%
